{"data": "Assay results of several laboratories", "note": "Lines come from different studies, so protocols differ. “And” joins repeats or separate records; there may be more than shown. ± marks the error that the study gave."}
{"Compound": "Cc1ccc(S(=O)(=O)Nc2c(N[C@H]3CC[C@H](NC(=O)Nc4ccc(F)c(Cl)c4)CC3)c(=O)c2=O)cc1", "test system": "C57BL/6 mouse, DSS-induced colitis", "setting": "oral, 100 mg/kg daily, day 8", "scale": "baseline: baseline", "measurement": "body weight loss", "result": "-11.9%"}
{"Compound": "O=S(=O)(NCCNC/C=C/c1ccc(Br)cc1)c1cccc2cnccc12", "test system": "mouse zygotes", "setting": "20 µM, 96 h post-hCG", "measurement": "embryos reaching 4-cell", "result": "5.26%"}
{"Compound": "Oc1c(Br)cc(Br)cc1Oc1ccc(Br)cc1Br", "assay": "glucuronidation", "test system": "human liver microsomes", "measurement": "Vmax/Km", "result": "274 ± 125 µL/min/mg"}
{"Compound": "C[C@H]1O[C@@H](O[C@H]2CC[C@@]3(C)[C@@H](CC[C@]4(C)[C@@H]3C=C[C@]35OC[C@@]6(CCC(C)(C)C[C@H]63)[C@@H](O)C[C@]54C)[C@]2(C)CO)[C@H](O)[C@@H](O[C@@H]2O[C@H](CO)[C@@H](O)[C@H](O)[C@H]2O)[C@H]1O", "assay": "item: FAS", "test system": "chronic-plus-binge ethanol-fed mice, AAV8-TBG-Null, liver", "setting": "dose not given, high dose, unit not given", "scale": "baseline: AAV8-TBG-Null ethanol group", "measurement": "mRNA level", "result": "0.88 and 0.71 and 0.76 and 0.96 and 0.77 and 0.89"}
{"Compound": "CC1=C(O)C(=O)C=C2C1=CC=C1[C@@]2(C)CC[C@@]2(C)[C@@H]3C[C@](C)(C(=O)O)CC[C@]3(C)CC[C@]12C", "assay": "video-EEG", "test system": "Sprague-Dawley rat pups, multiple-hit infantile spasms model", "setting": "i.p., 4 mg/kg, 4 to 5 h, CELA-4 arm", "scale": "baseline: vehicle", "measurement": "spasm frequency", "result": "decreased"}
{"Compound": "CC[C@H](C)[C@@H]1NC(=O)[C@@H]2CCCN2C(=O)[C@H](CC(C)C)NC(=O)[C@H](CC(C)C)NC(=O)CNC(=O)[C@@H](NC(=O)[C@@H](NC(=O)[C@H](CC(=O)O)NC(=O)CNC(=O)[C@@H](NC(=O)[C@H](C)NC(=O)CNC(=O)[C@H](CCCCN)NC(=O)[C@H](CC(C)C)NC(=O)[C@H](CC(C)C)NC(=O)[C@H](CCCCN)NC(=O)CNC(=O)[C@@H](NC(=O)[C@@H](N)CC(C)C)C(C)C)C(C)C)C(C)C)CSSC[C@@H](C(=O)O)NC1=O", "assay": "RNA-seq, item: H3f3a-ps1 mRNA", "test system": "mouse traumatic brain injury, frontal cortex and hippocampus", "setting": "dose not given", "scale": "baseline: TBI plus compound vs TBI", "measurement": "log2 fold change", "result": -1}
{"Compound": "C[C@]1(CO)Cc2ncn(-c3ccc(C#N)c(Cl)c3)c2C(=O)O1", "assay": "aldosterone synthesis, inhibitor, item: sodium", "test system": "healthy Japanese adults, urine", "setting": "40 mg, 0-24 h after first dose, multiple rising dose", "measurement": "urinary excretion", "result": "143 mmol"}
{"Compound": "[131I-].[Na+]", "assay": "ATA response criteria", "test system": "human, papillary thyroid cancer, distant metastases", "setting": "3700 MBq", "measurement": "biochemical incomplete response", "result": "13.6%"}
{"Compound": "CC[C@H](C)[C@H](NC(=O)[C@H](CCC(=O)O)NC(=O)[C@H](CCCNC(=N)N)NC(=O)[C@H](CCCNC(=N)N)NC(=O)[C@H](CCCNC(=N)N)NC(=O)[C@H](CCC(N)=O)NC(=O)[C@H](CCCNC(=N)N)NC(=O)[C@H](CCCNC(=N)N)NC(=O)[C@H](CCCCN)NC(=O)[C@H](CCCCN)NC(=O)[C@H](CCCNC(=N)N)NC(=O)CNC(=O)[C@H](Cc1ccc(O)cc1)NC(C)=O)C(=O)N[C@@H](CC(=O)O)C(=O)N[C@@H](Cc1c[nH]cn1)C(=O)N[C@@H](CC(=O)O)C(N)=O", "assay": "fear conditioning", "test system": "db/db mouse", "setting": "dose not given, 8 weeks", "scale": "baseline: scrambled peptide", "measurement": "freezing time", "result": "increased"}
{"Compound": "Clc1cc2c(cc1Cl)Oc1cc(Cl)c(Cl)cc1O2", "assay": "RNA-Seq, item: Ephx1", "test system": "female Sprague-Dawley rat, liver", "setting": "dose not given", "scale": "baseline: vehicle", "measurement": "mRNA level", "result": "3.3 fold"}
{"Compound": "Cc1nc(Nc2ccc(CC(=O)O)cc2)nc(Nc2ccc(F)c(C(F)(F)F)c2)c1C", "test system": "mice, chronic ethanol plus binge, liver", "setting": "intraperitoneal, 0.3 mg/kg daily, ethanol diet 4 weeks, dosed last two", "scale": "baseline: vehicle", "measurement": "triglyceride content", "result": "no effect"}
{"Compound": "CS(=O)(=O)c1ccc(-c2nnc(/C=C/c3nnc(-c4ccc(C#N)cc4)o3)n2-c2ccccc2Cl)nc1", "assay": "RNA-seq GSEA, item: HALLMARK_NOTCH_SIGNALING", "test system": "organoids, small intestinal, Apc Q1405X, mouse", "setting": "dose not given, wild-type organoids", "scale": "baseline: DMSO, direction not given", "measurement": "normalized enrichment score", "result": -1.26}
{"Compound": "O=C1OC[C@@H](O)[C@H]1O", "assay": "binding, MIDAS equilibrium dialysis LC-MS", "test system": "A2AR-BRIL thermostabilized", "setting": "concentration not given", "scale": "baseline: no-protein control", "measurement": "log2 fold change", "result": 0.759}
{"Compound": "N=C(N)NCCC[C@H](NC(=O)CCCCCNC(=O)[C@H](CCCNC(=N)N)NC(=O)[C@H](CCCNC(=N)N)NC(=O)CCCCCNC(=O)[C@H](CCCNC(=N)N)NC(=O)[C@H](CCCNC(=N)N)NC(=O)CCCCCNC(=O)[C@H](CCCNC(=N)N)NC(=O)[C@H](CCCNC(=N)N)NC(=O)CCCCCNC(=O)[C@@H](N)CCCNC(=N)N)C(=O)NCCCCCC(=O)NCCC(=O)O", "assay": "broth microdilution", "test system": "BAA-2469, NDM-1 producing, Mueller-Hinton broth", "measurement": "MIC", "result": "96 µM"}
{"Compound": "CN(C)C(=O)c1cc2cnc(Nc3ccc(N4CCNCC4)cn3)nc2n1C1CCCC1", "test system": "HR+/HER2− advanced breast cancer patients", "setting": "dose not given, region other", "measurement": "median PFS2", "result": "50.6 months"}
{"Compound": "CN1CCC(=C2c3ccccc3CC(=O)c3sccc32)CC1", "target or system": "Plasmodium falciparum", "test system": "GB4", "measurement": "IC50", "result": "3.16 µM"}
{"Compound": "O=C(c1ccc(C#Cc2cccc(F)c2)nc1)N1CCC(O)CC1", "test system": "rat hippocampal CA3 slices", "setting": "10 µM, 10 min, spontaneous epileptiform activity", "scale": "baseline: baseline", "measurement": "population spike inter-event interval", "result": "86.5 ± 11.7%"}
{"Compound": "Nc1ncnc2c1ncn2[C@@H]1O[C@H](COP(=O)(O)O)[C@@H](OP(=O)(O)O)[C@H]1O", "assay": "binding, MIDAS equilibrium dialysis LC-MS", "test system": "A2AR-BRIL thermostabilized", "setting": "concentration not given", "scale": "baseline: no-protein control", "measurement": "log2 fold change", "result": -0.309}
{"Compound": "CCC(=O)N1CCN(C(=O)c2ccccc2)CC1", "target or system": "Plasmodium falciparum", "test system": "D10", "measurement": "IC50", "result": "3.16 µM"}
{"Compound": "CC[C@H](C)[C@H](NC(=O)[C@H](CCCNC(=N)N)NC(=O)[C@H](CO)NC(=O)[C@H](Cc1ccc(O)cc1)NC(=O)[C@@H](NC(=O)[C@@H](NC(=O)[C@H](C)NC(=O)CN)C(C)C)[C@@H](C)O)C(=O)N[C@@H](CO)C(=O)NCC(=O)N[C@@H](CCC(N)=O)C(=O)N[C@@H](Cc1ccc(O)cc1)C(=O)O", "assay": "broth microdilution", "test system": "168, Mueller-Hinton broth", "setting": "16 to 18 h, 37 °C", "measurement": "MIC", "result": "> 512 µM"}
{"Compound": "CN1CCN(S(=O)(=O)c2cc([N+](=O)[O-])ccc2N(CCOS(C)(=O)=O)CCOS(C)(=O)=O)CC1", "test system": "NSG mice, sample CH PDX", "setting": "intraperitoneal, 25 mg/kg weekly x3", "scale": "baseline: vehicle", "measurement": "EFS delay (T-C)", "result": "> 360 days"}
{"Compound": "CCCCC1(CCCC)CN(c2ccccc2)c2cc(SC)c(OCC(=O)N[C@@H](C(=O)NCC(=O)O)c3ccccc3)cc2S(=O)(=O)C1", "assay": "item: HDL cholesterol", "test system": "human, serum", "setting": "5 mg once daily, day 2", "measurement": "serum HDL-C", "result": "48.4 mg/dL"}
{"note": "For quick reference, copied from above:"}
{"Compound": "CC[C@H](C)[C@@H]1NC(=O)[C@@H]2CCCN2C(=O)[C@H](CC(C)C)NC(=O)[C@H](CC(C)C)NC(=O)CNC(=O)[C@@H](NC(=O)[C@@H](NC(=O)[C@H](CC(=O)O)NC(=O)CNC(=O)[C@@H](NC(=O)[C@H](C)NC(=O)CNC(=O)[C@H](CCCCN)NC(=O)[C@H](CC(C)C)NC(=O)[C@H](CC(C)C)NC(=O)[C@H](CCCCN)NC(=O)CNC(=O)[C@@H](NC(=O)[C@@H](N)CC(C)C)C(C)C)C(C)C)C(C)C)CSSC[C@@H](C(=O)O)NC1=O", "assay": "RNA-seq, item: H3f3a-ps1 mRNA", "test system": "mouse traumatic brain injury, frontal cortex and hippocampus", "setting": "dose not given", "scale": "baseline: TBI plus compound vs TBI", "measurement": "log2 fold change", "result": -1}
{"Compound": "[131I-].[Na+]", "assay": "ATA response criteria", "test system": "human, papillary thyroid cancer, distant metastases", "setting": "3700 MBq", "measurement": "biochemical incomplete response", "result": "13.6%"}
{"Compound": "Cc1nc(Nc2ccc(CC(=O)O)cc2)nc(Nc2ccc(F)c(C(F)(F)F)c2)c1C", "test system": "mice, chronic ethanol plus binge, liver", "setting": "intraperitoneal, 0.3 mg/kg daily, ethanol diet 4 weeks, dosed last two", "scale": "baseline: vehicle", "measurement": "triglyceride content", "result": "no effect"}
